Assay results gathered from unrelated publications.
Every numbered part comes from another study and shows a few of its results, in no order. “And” joins repeats or separate records; there may be more than shown.

Block 1 — organism: Arabidopsis thaliana; strain: Col-0; tested at: 12.5 µg/mL; notes: seed germination, single repetition; measurement: hypocotyl length
CC(C)=CCN1C(=O)C(O)(C(=O)O)Oc2cc(F)ccc21 (stereo not drawn): 2.02 cm and 1.93 cm and 2 cm and 2.01 cm and 1.97 cm
CCN1C(=O)C(O)(C(=O)O)Oc2cc(F)ccc21 (stereo not drawn): 1.9 cm and 1.87 cm and 1.94 cm and 1.8 cm and 1.91 cm
O=C(O)C1(O)Oc2ccccc2N(Cc2ccccc2)C1=O (stereo not drawn): 1.77 cm and 1.72 cm and 1.71 cm and 1.78 cm
CC(C)(C)c1ccc(Oc2ccc3c(c2)OC(O)(C(=O)O)C(=O)N3Cc2ccccc2)cc1 (stereo not drawn): 1.84 cm and 1.86 cm and 1.83 cm and 1.98 cm and 1.89 cm
Cc1ccc2c(c1)OC(O)(C(=O)O)C(=O)N2Cc1ccccc1 (stereo not drawn): 2.02 cm and 2.04 cm and 2.05 cm and 2.03 cm

Block 2 — cell line: HCC1569; technique: in-cell western; measured: CDK1 phospho-Thr14; measurement: pCDK1 (Thr14) level
SMILES: Cc1ccc(O)c(C)c1-c1cnc2[nH]c(-c3cnc(N4CCC(CCN5CCN(c6ccc(NC7CCC(=O)NC7=O)cc6F)CC5)CC4)nc3)cc2c1C#N (stereo not drawn)
41.15 nM: 63.3 RLU and 49.6 RLU
10000 nM: 155 RLU and 158 RLU
13.72 nM: 43.9 RLU and 49.1 RLU
3333.33 nM: 145 RLU and 154 RLU
123.46 nM: 93.9 RLU and 101 RLU
1111.11 nM: 136 RLU and 142 RLU

Block 3 — cell line: U-87 MG; tested at: concentration not given; baseline: DMSO; measurement: log2 fold change
SMILES: CCN1/C(=C/C=C2\CCCC(/C=C/C3=[N+](CC)c4ccccc4C3(C)C)=C2NCCCCCCCCN2CCC(Nc3nc4ccccc4n3Cc3ccc(F)cc3)CC2)C(C)(C)c2ccccc21
measured: FSCN2 mRNA: -1.62
measured: NDC1 mRNA: -1.11
measured: MAF mRNA: 2.3
measured: RBL1 mRNA: -1.38
measured: MAP7 mRNA: 2.46
measured: PPP1R3C mRNA: 2.26
measured: SP5 mRNA: -2.06
measured: GAN mRNA: 1.39
measured: FGF17 mRNA: 3.31
measured: TRIM59 mRNA: -1.05
measured: ITGA5 mRNA: -1.2
measured: KATNAL1 mRNA: -0.994
measured: TM4SF18 mRNA: -6.11
measured: POLR2L mRNA: -1.14
measured: SH3BP2 mRNA: -1.29

Block 4 — technique: microarray; baseline: untreated; measurement: log2 fold change
Compound: COCCCCCCC1CC2C(CCC3(C)C(O)CCC23)c2ccc(O)cc21 (stereo not drawn)
PANC-1; measured: CCL11; 10 µM: 0
SK-OV-3; measured: GZMK; 50 µM: 4.11
SK-OV-3; measured: UBB; 50 µM: -0.272
PANC-1; measured: CCL11; 50 µM: 0
SK-OV-3; measured: ISG20L1; 50 µM: 1.39
A549; measured: CCL8; 10 µM: 5.27
SK-OV-3; measured: ADAMTS14; 10 µM: 0.408
A549; measured: ADAMTS8; 50 µM: -1.54
PANC-1; measured: GZMK; 10 µM: 3.35
A549; measured: GADD45A; 10 µM: 0.953

A few entries again (block 2):
3333.33 nM: 145 RLU and 154 RLU
123.46 nM: 93.9 RLU and 101 RLU
1111.11 nM: 136 RLU and 142 RLU
